# Experimental data from different studies.
# Protocols differ between the studies behind these lines. ± marks the error that the study gave.
# Organism: human cytomegalovirus
Structure (SMILES),effect on,method,cells,strain,time,EC50
O=c1[nH]c(=O)c2ncn(C[C@@H](CO)OCP(=O)(O)O)c2[nH]1,cytopathic effect,,HEL,AD169,,80.2 ± 36 µM
OC[C@H]1O[C@@H](n2cnc3c(O)nc(-n4cc(-c5ccccc5)nn4)nc32)[C@H](O)[C@@H]1O,viral plaque formation,,HEL,Davis,,> 50 µM
Nc1nc2c(ncn2COC(CO)CO)c(=O)[nH]1,viral plaque formation,plaque reduction,HEL,Davis,,7.9 µM
O=c1ccn(CCCCCCCCCCCCOc2ccc(Br)cc2)c(=O)[nH]1,viral replication,plaque reduction,WS1,AD169,5 days,3.1 µM
CCCCCCCCCCCCCCCCOCCCOP(=O)(O)COCCn1cnc2c(=O)[nH]c(=O)[nH]c21,cytopathic effect,,HEL,AD169,,0.2 ± 0.28 µM
NC1=NC(=O)N(CC(O)C(F)(F)F)CN1 (stereo not drawn),cytopathic effect,,HEL,AD-169,,> 100 µM
CCOP(=O)(OCC)[C@@H]1C[C@@H](C(=O)Nc2cc3c4c(cccc4c2)C(=O)N(CCN2CCCC2)C3=O)ON1C (racemic),viral plaque formation,plaque reduction,HEL,Davis,,20 µM
Nc1nc(O)c2ncn(COC(CO)CO)c2n1,viral replication,plaque reduction,WS1,AD169,5 days,2 ± 0.5 µM
CCOC(=O)C(C)NP(=O)(COC(CF)CN1CN2C=C(c3ccccc3)NC2=NC1=O)NC(C)C(=O)OCC (stereo not drawn),cytopathic effect,,HEL,AD-169,,> 100 µM
Cc1cn([C@H]2C[C@H](N=[N+]=[N-])[C@@H](COC(=O)Cn3c(=O)ccn(CCCCCCOc4ccc(Br)cc4)c3=O)O2)c(=O)[nH]c1=O,viral replication,plaque reduction,WS1,AD169,5 days,7.9 ± 3 µM
O=c1[nH]c(=O)c2ncn(CCOCP(=O)(O)O)c2[nH]1,cytopathic effect,,HEL,AD169,,10.5 ± 3.9 µM
Cc1cn([C@H]2C[C@H](N=[N+]=[N-])[C@@H](COC(=O)Cn3c(=O)ccn(CCCCCCCCCCOc4ccc(Br)cc4)c3=O)O2)c(=O)[nH]c1=O,viral replication,plaque reduction,WS1,AD169,5 days,3.2 ± 0.5 µM
Nc1ccn(C[C@@H](CO)OCP(=O)(O)O)c(=O)n1,viral cytopathicity or plaque formation,,,AD169,,0.79 ± 0.51 µM
C[C@H](Cn1cnc2c(=O)[nH]c(=O)[nH]c21)OCP(=O)(O)O,cytopathic effect,,HEL,AD169,,> 100 µM
Cc1cn([C@H]2C[C@H](N=[N+]=[N-])[C@@H](COC(=O)Cn3c(=O)ccn(CCCOc4ccc(Br)cc4)c3=O)O2)c(=O)[nH]c1=O,viral replication,plaque reduction,WS1,AD169,5 days,3.2 ± 0.8 µM
Nc1ccn(C[C@@H](CO)OCP(=O)(O)O)c(=O)n1,viral plaque formation,plaque reduction,HEL,Davis,,1.14 µM
NC1=NC(=O)N(C[C@@H](CF)OCP(=O)(O)O)CN1,cytopathic effect,,HEL,AD-169,,> 100 µM
O=c1[nH]c(=O)c2ncn(C[C@@H](CF)OCP(=O)(O)O)c2[nH]1,cytopathic effect,,HEL,AD169,,> 329 µM
CC(C)OP(=O)(CO[C@H](CF)Cn1cnc(N)nc1=O)OC(C)C,cytopathic effect,,HEL,AD-169,,24.5 ± 13.6 µM
O=c1nc(NC2CC2)c2ncn(CCOCP(=O)(O)O)c2[nH]1,cytopathic effect,,HEL,AD169,,> 100 µM
OC[C@H]1O[C@@H](n2cnc3c(NCc4ccccc4)nc(-n4cc(-c5ccccc5)nn4)nc32)[C@H](O)[C@@H]1O,viral plaque formation,,HEL,AD-169,,> 40 µM
O=C(O)Cn1c(=O)ccn(CCCCCOc2ccc(Br)cc2)c1=O,viral replication,plaque reduction,WS1,AD169,5 days,104 µM
Nc1nc(O)c2ncn(COC(CO)CO)c2n1,cytopathic effect,,HEL,AD-169,,6.7 ± 2.9 µM
Nc1ccn(C[C@@H](CO)OCP(=O)(O)O)c(=O)n1,cytopathic effect,,HEL,Davis,,0.92 ± 0.34 µM

# Excerpt of the above:
Structure (SMILES),effect on,method,cells,strain,time,EC50
Nc1nc2c(ncn2COC(CO)CO)c(=O)[nH]1,viral plaque formation,plaque reduction,HEL,Davis,,7.9 µM
Cc1cn([C@H]2C[C@H](N=[N+]=[N-])[C@@H](COC(=O)Cn3c(=O)ccn(CCCCCCOc4ccc(Br)cc4)c3=O)O2)c(=O)[nH]c1=O,viral replication,plaque reduction,WS1,AD169,5 days,7.9 ± 3 µM
O=c1nc(NC2CC2)c2ncn(CCOCP(=O)(O)O)c2[nH]1,cytopathic effect,,HEL,AD169,,> 100 µM
